Experimental data collected from several papers.
Every numbered part comes from another study and shows a few of its results, in no order. Substitutions count along the parent as printed.

Set 1
Target: Hepatocyte nuclear factor 3-beta, forkhead domain (FOXA2, Homo sapiens, UniProt Q9Y261, residues 142-269)
Method: protein-binding microarray
Molecule type: double-stranded DNA, one strand shown
Sample: in vitro
Concentration: not given
Setting: k-mer, scored over probes, only values ≥0.25
Direction: higher = stronger binding
Quantity: E-score
Construct (chain): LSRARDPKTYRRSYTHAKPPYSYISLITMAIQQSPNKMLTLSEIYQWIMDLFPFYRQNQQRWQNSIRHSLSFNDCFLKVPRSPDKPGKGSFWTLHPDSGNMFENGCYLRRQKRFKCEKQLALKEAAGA
TATCACAA: 0.279
GACATATC: 0.304
ACGATACA: 0.251
GATACAAA: 0.27
TCAATACA: 0.341
TCTGTACA: 0.256
AACTTACA: 0.262
ATACACAG: 0.255
CTATTCTA: 0.289
ATAAGCAG: 0.254
ATATCACC: 0.291
CACATACC: 0.26
GCAAACAC: 0.287
CTACACTA: 0.284
AGAAATAG: 0.282
AATACAAA: 0.357
ATAACTAC: 0.276
GACAACAA: 0.289
AATCCATA: 0.298
ATAGCGAA: 0.268
CTAATAAA: 0.26

Set 2
Target: Histone acetyltransferase KAT6A, winged helix 2, GST fusion (KAT6A, Homo sapiens, UniProt Q92794, residues 85-181)
Method: protein binding microarray
Molecule type: double-stranded DNA, one strand shown
Sample: in vitro
Concentration: not given
Setting: 8-mer, flanks averaged, mean of 2 arrays, mostly near background
Relative to: not given
Direction: higher = stronger binding
Quantity: E-score
Target sequence (chain): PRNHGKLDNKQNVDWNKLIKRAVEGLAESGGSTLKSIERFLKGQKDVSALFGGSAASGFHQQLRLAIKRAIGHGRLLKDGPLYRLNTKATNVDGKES
CCGTCCTC: 0.0327
GACAGGAA: 0.0395
CACCCATC: -0.00486
GCCTTGAA: -0.00804
AGGTGCTC: -0.175
CTAACTAG: -0.0198
AGCTCAAA: 0.0988
GGATTAAC: -0.0259
CTTAGGGC: 0.123
AATGCCAT: 0.0843
GGACCAAC: 0.0407
CGACGACG: -0.0346
ACGCAACA: 0.118
AGGGCAAT: 0.0153
GCCAAACC: -0.013
CCGCTAGA: -0.0433
ATATTATA: 0.0579
ATAGACGC: -0.0244
AATGCCTA: -0.108
CAGCTGAA: -0.0877
GGGACCGA: 0.202
ACGCGTCA: 0.055
CCTGCATA: -0.108
ATAGGCAA: -0.0634
AGTCTTGG: -0.19

Set 3
Target: Interferon regulatory factor 5, full length, phosphomimetic (IRF5, Homo sapiens, UniProt Q13568-2, residues 1-514, K96S/S451D/S453D/S456D/S462D)
Method: protein-binding microarray
Molecule type: double-stranded DNA, one strand shown
Sample: in vitro
Concentration: 250 nM
Setting: 60-bp whole probe
Together with: salmon DNA 0.4 mg/ml
Relative to: random background probes
Direction: higher = stronger binding
Quantity: log fluorescence
Shared flanks, not repeated: GCCTAGCAC … GTCTTGATTCGCTTGACGCTGCTG
GACGGTTTCGGTTTCGCGACGTGCTAG: 10.3 z-score
GACGGTTTCGGTTCCGCGACGTGCTAG: 9.67 z-score
TTGGTTTTCCTTATTGCTTCGTGCTAG: 1.2 z-score
TCATCTTGTTCTCTCTGACTGTGCTAG: 0.413 z-score
TTAGGTATCCTTTTCGTTTAGTGCTAG: 1.58 z-score
TTAGGACTGCTGTTCCTTTAGTGCTAG: -0.207 z-score
GTCAGCGGTGGTGTTCGGTGGTGCTAG: -0.333 z-score
GGCATTTTCGGGTAGATGGCCGTGCTA: 6.63 z-score
GAAGGACTGGGGACTGGGGACGTGCTA: -0.657 z-score
TCACTTATAAATAGCACACTGTGCTAG: 0.561 z-score
TAAGGTTCCGGTTTCGGTTAGTGCTAG: 9.19 z-score
TTAGGACTGCTACAGCTTTAGTGCTAG: -0.437 z-score
CTAGGACTGCTTCTCCTTTAGTGCTAG: -0.43 z-score
TTAGGTTTCAGTCTCGGTTAGTGCTAG: 5.03 z-score
CCAGGGCTGCCAGCCTCCTCGTGCTAG: -0.999 z-score
TCATTCATGAAATTTTAAACTGTGCTA: 0.957 z-score
GACGATTTCGGGTATCGAGTCGTGCTA: 4.87 z-score
GACGGAGTGCTTTTCCTGACGTGCTAG: -0.213 z-score
GACGATTCCAGTATCGAGACGTGCTAG: 2.04 z-score

Set 4
Target: RNA binding protein fox-1 homolog 2, RRM domain, GST-SBP tag (RBFOX2, Homo sapiens, UniProt O43251-10, residues 100-194)
Method: RNA Bind-n-Seq
Molecule type: RNA
Sample: in vitro
Concentration: 365 nM
Setting: natural RNA segment, single round, ends assumed
Relative to: no-protein control
Direction: higher = stronger binding
Quantity: RBNS enrichment (R)
Residues (chain): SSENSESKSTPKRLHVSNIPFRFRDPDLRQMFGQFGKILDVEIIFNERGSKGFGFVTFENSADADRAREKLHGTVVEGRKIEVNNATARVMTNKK
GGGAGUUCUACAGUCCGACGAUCAGCCAAGCCUAUCCAGCUAACAAGAGCUCCCUGGGGCUGGUCACAGCUGGCUCAUGAUGCUGAACUUGAAAGUUUUUUUGUUUUUGUUUUUGUUUUGUGGCUCCUCCAAGUGGAAUUCUCGGGUGCCAA: 1.1
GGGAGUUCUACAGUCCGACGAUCUUGGGUUUUAGUUGGGAUUUUACAUAGCUUGCAUUUUAAUUCUUUGGUUCUUUGCUGUUUCUAUUAACCCACAGCAUUAUUUUAAUAAAUGUUAUAAUACCAACCUACUAUGGAAUUCUCGGGUGCCAA: 4.82
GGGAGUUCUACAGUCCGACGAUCGAGUUCAAUUCCCAGCAACCACAUGAUGGUUCAUAAUGGGAUCUGAUGCCCUCUUCUGGCAUGCAGGCAGAAUACUAUAUAUAGUAAGUAAAUCGUAAAGAGAAAGGAAUUGGAAUUCUCGGGUGCCAA: 2.92
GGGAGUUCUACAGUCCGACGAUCUCAGCCUGCCCACAUGCCACCGAGCAAACGCAUCUUGCUUUUCACAUCUCUCCUCCUACAGCCUUAAUGGCUGCUUGCUGCCAUAUGUGACAAAUCACCACCACCAGUGUUGGAAUUCUCGGGUGCCAA: 1.72
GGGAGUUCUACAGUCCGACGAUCAGCGGCCCUACAAGUGUCCCAGGUGCGGCAAGGCCUUCGCUGAUAGCUCUUACCUACUCCGCCACCAGCGUACCCACUCUGGCCAGAAGCCCUACAAAUGUCCACACUGUUGGAAUUCUCGGGUGCCAA: 0.427
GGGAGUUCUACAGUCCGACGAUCAAGAAUUUAAACGGGAGUCUGAAGACCUGCUGUUACUAGAAAGUUAAGAAAGGCGCUUUACAGAUAUAAAGAAAGGGAACAUGACAGCUGCCUGAUGGCUUAGCCUGGAGUGGAAUUCUCGGGUGCCAA: 0.859
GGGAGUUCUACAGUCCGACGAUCCUCCCGGUGAAUAUUAUCAUAGGGCUUUAUUAUAUUCUUGGUCUUCAUUUCUGAUCAAGUAAAUACACCAGCAGUUGUCAUUCAAUGCAGGUUUUUGUACUUAAUUAUAUUGGAAUUCUCGGGUGCCAA: 0.764
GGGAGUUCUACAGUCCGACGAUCCCUUCAGUGAUAUACUUGUUCGUUCAUUUCUAAAAUGUGAAGCUUUAGGACCAAAUUGUUAGAAAGCAUCAGGAUGACCAGUUAUCUCGAGUAGAUUUUCUUGGAUUUCAUGGAAUUCUCGGGUGCCAA: 0.56
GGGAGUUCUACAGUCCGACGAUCUUUUUAAAUACUACAAAUUAGUGUCAGGCAGUUCCCAGAAAGAGACAAGAAAUCCUAGUGGCCUCCCAGACUGCAGGGUCCCCAAGGAUGGAAAGGGAAUGUUCUGCUGGUGGAAUUCUCGGGUGCCAA: 1.57
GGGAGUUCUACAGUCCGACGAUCCCUCUAAACUUUGAUUUAUUGAAGUUUUAUUUGGCAAGAAAAAAGAAAUUGAAUCUUGAUCAAUAUUUAAACCAAAGGGAAAAGGGAAAACCAAAACCAAACCAAAGUUCUGGAAUUCUCGGGUGCCAA: 0.408
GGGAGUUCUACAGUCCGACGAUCGCUUAAUAACGCCGCACUGGGCCAGCGCGCUGUGCUAGAGAUUUCUCAUCAAAACUAAAGACAGCAAAAGGCUUGUCAGUGAUCUAAGGGUUUGUGAGCUCUCUGCUCUGUGGAAUUCUCGGGUGCCAA: 0.313
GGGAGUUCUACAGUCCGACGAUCGCCGUGUCCUGAGGAGCACCUGGCCUUCCGCGUGGUCAGCGGGGCCGCCAACGUCAUUGGGCCCAAGAUCUGCCUCGAGGACAAGAGGCUGAUGAGCAGCGUCAAGGACAUGGAAUUCUCGGGUGCCAA: 0.609

Set 5
Target: CCNA1, cyclin fold, Cln2 fusion (human)
Method: yeast growth competition, sequencing
Sample: yeast
Setting: weak parent motif
Relative to: not given
Direction: higher = stronger binding
Quantity: normalised enrichment score
Starting sequence: DTL docking peptide (human); PSSMRKICTYFHR; partner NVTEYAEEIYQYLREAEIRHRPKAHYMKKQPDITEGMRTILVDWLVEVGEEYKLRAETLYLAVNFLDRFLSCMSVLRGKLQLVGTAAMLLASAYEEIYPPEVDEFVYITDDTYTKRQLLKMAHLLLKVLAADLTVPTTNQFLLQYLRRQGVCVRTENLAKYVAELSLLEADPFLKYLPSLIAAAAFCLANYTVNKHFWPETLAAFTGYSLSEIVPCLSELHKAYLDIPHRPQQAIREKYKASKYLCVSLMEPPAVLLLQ
T9A: -0.321
Y10A: 0.0807
M4A: -0.185
I7A: 0.0143
H12A: -0.23
K6A: -0.246

Some of these lines once more (set 2):
GACAGGAA: 0.0395
CACCCATC: -0.00486
GCCTTGAA: -0.00804
AGGTGCTC: -0.175
CTAACTAG: -0.0198
AGCTCAAA: 0.0988
GGATTAAC: -0.0259
CTTAGGGC: 0.123
AATGCCAT: 0.0843
GGACCAAC: 0.0407
CGACGACG: -0.0346
ACGCAACA: 0.118
AGGGCAAT: 0.0153
GCCAAACC: -0.013
